Experimental data of several laboratories.
Chain of UniProt P15735 (whole entry, looked up): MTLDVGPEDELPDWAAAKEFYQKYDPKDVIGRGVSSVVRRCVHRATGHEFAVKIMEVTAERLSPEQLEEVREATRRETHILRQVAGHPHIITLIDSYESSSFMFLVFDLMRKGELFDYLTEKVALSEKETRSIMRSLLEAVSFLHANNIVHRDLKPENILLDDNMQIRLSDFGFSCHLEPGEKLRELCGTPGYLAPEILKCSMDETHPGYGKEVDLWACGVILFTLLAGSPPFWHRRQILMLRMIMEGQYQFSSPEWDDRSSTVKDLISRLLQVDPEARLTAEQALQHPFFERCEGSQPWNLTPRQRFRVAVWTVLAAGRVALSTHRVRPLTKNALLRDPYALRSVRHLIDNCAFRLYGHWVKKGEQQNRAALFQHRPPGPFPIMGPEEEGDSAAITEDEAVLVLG
Chain of UniProt O43318 (whole entry, looked up): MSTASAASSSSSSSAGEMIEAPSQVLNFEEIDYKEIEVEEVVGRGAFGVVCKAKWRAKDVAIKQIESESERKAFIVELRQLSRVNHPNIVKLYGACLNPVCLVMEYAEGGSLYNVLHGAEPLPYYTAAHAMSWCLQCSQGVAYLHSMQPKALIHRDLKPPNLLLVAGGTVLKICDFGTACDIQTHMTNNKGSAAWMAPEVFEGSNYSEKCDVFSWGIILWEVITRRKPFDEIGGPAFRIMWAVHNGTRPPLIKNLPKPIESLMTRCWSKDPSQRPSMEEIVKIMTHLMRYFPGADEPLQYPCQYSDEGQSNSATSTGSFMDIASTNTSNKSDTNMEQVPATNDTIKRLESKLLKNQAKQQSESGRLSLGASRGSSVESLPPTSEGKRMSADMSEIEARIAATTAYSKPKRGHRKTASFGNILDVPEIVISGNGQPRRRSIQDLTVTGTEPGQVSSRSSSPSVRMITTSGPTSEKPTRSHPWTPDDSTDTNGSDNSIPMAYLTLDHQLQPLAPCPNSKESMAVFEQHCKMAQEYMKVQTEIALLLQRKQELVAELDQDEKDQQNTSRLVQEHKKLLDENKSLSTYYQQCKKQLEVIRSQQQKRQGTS
Chain of UniProt O95747 (whole entry, looked up): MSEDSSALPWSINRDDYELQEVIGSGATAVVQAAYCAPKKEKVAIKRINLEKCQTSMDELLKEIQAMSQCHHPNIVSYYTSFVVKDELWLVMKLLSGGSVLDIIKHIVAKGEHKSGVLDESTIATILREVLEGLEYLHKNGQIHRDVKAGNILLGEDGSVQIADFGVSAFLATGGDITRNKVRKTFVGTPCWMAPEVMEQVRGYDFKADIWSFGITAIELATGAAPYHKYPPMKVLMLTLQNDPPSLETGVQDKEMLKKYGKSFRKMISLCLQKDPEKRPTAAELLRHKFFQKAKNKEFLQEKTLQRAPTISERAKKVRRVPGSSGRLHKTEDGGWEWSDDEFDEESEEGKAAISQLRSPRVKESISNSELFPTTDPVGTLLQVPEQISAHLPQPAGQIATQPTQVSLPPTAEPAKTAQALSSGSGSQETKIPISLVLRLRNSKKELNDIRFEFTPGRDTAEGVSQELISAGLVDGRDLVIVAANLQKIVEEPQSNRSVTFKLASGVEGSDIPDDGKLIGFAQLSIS

O=C(c1ccc(F)cc1)C1CCN(CCn2c(=O)[nH]c3ccccc3c2=O)CC1
compound remaining (metabolic stability, mass spectrometry; mouse, liver microsomes; 5 min): 70.1%

Nc1ccn([C@@H]2O[C@H](CO)[C@@H](O)C2(F)F)c(=O)n1
viability (MCF7; cell growth or viability, MTT; 10 µg/mL, 48 h): 17.2%

CNc1ncc2c(/C=C/C(=O)N3CCC(OC)CC3)nn(Cc3cccc(C(F)(F)F)c3)c2n1
remaining activity (PHKG2 (Homo sapiens, UniProt P15735); enzyme activity, inhibitor, radiometric; 1 µM): 81%

COc1cc(-c2cncc3c2CN(C)Cc2cc(N4CCNCC4)ccc2-3)cc(OC)c1OC
remaining activity (OXSR1 (Homo sapiens, UniProt O95747); enzyme activity, inhibitor; 1 µM): 103%

COc1cccc(-c2n[nH]c(SCc3ccccn3)n2)c1OC
concentration (male Sprague-Dawley rat, plasma; oral, 30 mg/kg, 30 min, single dose): 50.5 µg/mL

CC(=O)OC[C@@]1(C)[C@H]2CC[C@@H]3CN(Cc4ccccc4C)[C@@H](C4=CCOC4=O)C[C@H]3[C@]2(C)CC[C@H]1OC(C)=O
cell death (MRC5; cell growth or viability, ATP luminescence; 25 µM, 72 h): -4.9%

COc1cc(/C=C/C(=O)C(=Cc2ccc(O)cc2)C(=O)/C=C/c2ccc(O)c(OC)c2)ccc1O
viability (WRL68; cell growth or viability, MTT; 1.55 µg/mL, 48 h): 109%

COc1cccc(OC)c1-c1cc(C(=O)NC2(C(=O)O)C3CC4CC(C3)CC2C4)nn1-c1ccc(C(=O)N(C)CCCN(C)CCCN(C)C(=O)CN2CCN(CC(=O)[O-])CCN(CC(=O)[O-])CCN(CC(=O)[O-])CC2)cc1C(C)C.[177Lu+3] (stereo not shown)
tracer uptake (HT-29 tumour model; host not given, muscle; intravenous, 4 h, tumour-bearing): 0.5 %ID/g

O=C1CC[C@H](N2Cc3cc(N4CCN(CC5CCN(c6ccc([C@@H]7c8ccc(O)cc8CC[C@@H]7c7ccccc7)cc6)CC5)CC4)ccc3C2=O)C(=O)N1
MRT(0-inf) (female Sprague-Dawley rat, plasma; oral, 20 mg/kg, fasted): 8.96 h

COc1cccc(NC(=O)Nc2ccc(Oc3nc4ccccc4n4cnnc34)cc2)c1
viability (WISH; cell growth or viability, MTT; 25 µM, 24 h): 83.9%

C=CC(=O)N1CCC(COCC(=O)N2CCN(c3nc(-c4cnc(N)nc4C(F)F)nc(N4CCOC[C@@H]4C)n3)CC2)CC1
remaining binding (MAP3K7 (Homo sapiens, UniProt O43318); binding, competition with immobilised ligand; 1 µM): 98%

COc1cccc(OC)c1-c1cc(C(=O)NC2(C(=O)O)C3CC4CC(C3)CC2C4)nn1-c1ccc(C(=O)N(C)CCCN(C)CCCN(C)C(=O)CN2CCN(CC(=O)[O-])CCN(CC(=O)[O-])CCN(CC(=O)[O-])CC2)cc1C(C)C.[177Lu+3] (stereo not shown)
tracer uptake (HT-29 tumour model; host not given, bone; 7 days, tumour-bearing): 0.6 %ID/g

N#C[C@@]12C[C@@H]1[C@@H](n1cnc3c(N[C@@H](C4CCC4)C4CC4)nc(I)nc31)[C@H](O)[C@@H]2O
bioavailability (male Wistar rat, plasma; oral, 10 mg/kg): 13.1%

A few entries again:
CNc1ncc2c(/C=C/C(=O)N3CCC(OC)CC3)nn(Cc3cccc(C(F)(F)F)c3)c2n1
remaining activity (PHKG2 (Homo sapiens, UniProt P15735); enzyme activity, inhibitor, radiometric; 1 µM): 81%
